Results collected from several papers.
Several values in a cell are separate wells, animals, samples, runs or records. ± gives the spread as reported.
GRM2: Metabotropic glutamate receptor 2 (GRM2, Homo sapiens, UniProt Q14416)
UniProt A5GZW8, sequence (whole entry, looked up): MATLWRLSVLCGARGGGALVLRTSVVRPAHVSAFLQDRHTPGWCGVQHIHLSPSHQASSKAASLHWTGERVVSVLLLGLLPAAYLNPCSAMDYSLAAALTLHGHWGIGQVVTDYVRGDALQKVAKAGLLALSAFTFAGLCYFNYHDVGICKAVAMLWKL
UniProt Q007T0, sequence (whole entry, looked up): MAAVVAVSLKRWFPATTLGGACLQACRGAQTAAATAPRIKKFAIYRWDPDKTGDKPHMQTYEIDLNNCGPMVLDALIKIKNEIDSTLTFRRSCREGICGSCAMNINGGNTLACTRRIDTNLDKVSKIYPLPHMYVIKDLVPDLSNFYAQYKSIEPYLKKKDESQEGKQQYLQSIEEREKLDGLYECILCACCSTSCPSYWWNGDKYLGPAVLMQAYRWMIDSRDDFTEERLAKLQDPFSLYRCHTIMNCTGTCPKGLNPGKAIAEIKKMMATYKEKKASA
UniProt D0VWV4, sequence (whole entry, looked up): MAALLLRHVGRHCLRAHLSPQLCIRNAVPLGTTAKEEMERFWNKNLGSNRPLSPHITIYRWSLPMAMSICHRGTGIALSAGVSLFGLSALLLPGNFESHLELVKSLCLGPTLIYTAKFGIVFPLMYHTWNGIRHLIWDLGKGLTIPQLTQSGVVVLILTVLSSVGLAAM
UniProt Q14416, sequence (whole entry, looked up): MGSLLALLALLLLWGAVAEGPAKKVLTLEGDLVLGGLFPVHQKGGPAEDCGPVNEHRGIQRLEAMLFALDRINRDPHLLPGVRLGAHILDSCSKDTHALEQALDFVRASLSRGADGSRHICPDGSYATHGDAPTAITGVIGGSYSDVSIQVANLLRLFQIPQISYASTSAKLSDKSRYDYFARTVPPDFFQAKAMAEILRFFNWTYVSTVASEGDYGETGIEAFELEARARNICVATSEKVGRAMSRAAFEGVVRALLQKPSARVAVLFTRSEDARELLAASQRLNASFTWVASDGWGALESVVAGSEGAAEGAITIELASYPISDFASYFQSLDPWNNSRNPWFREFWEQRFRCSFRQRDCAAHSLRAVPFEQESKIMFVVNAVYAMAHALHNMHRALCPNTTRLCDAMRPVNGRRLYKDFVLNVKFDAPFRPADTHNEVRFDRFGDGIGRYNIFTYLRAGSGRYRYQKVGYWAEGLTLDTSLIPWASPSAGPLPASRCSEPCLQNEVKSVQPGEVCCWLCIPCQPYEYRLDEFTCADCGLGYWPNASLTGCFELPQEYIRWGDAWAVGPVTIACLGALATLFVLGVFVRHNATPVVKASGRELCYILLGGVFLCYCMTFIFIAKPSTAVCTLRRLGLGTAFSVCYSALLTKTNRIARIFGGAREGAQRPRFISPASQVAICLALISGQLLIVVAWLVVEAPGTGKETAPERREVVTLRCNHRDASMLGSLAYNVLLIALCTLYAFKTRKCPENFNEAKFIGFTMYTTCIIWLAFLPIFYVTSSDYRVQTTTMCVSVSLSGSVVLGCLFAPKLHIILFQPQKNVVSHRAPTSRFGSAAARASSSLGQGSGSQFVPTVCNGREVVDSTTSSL
UniProt Q8IU85, sequence (whole entry, looked up): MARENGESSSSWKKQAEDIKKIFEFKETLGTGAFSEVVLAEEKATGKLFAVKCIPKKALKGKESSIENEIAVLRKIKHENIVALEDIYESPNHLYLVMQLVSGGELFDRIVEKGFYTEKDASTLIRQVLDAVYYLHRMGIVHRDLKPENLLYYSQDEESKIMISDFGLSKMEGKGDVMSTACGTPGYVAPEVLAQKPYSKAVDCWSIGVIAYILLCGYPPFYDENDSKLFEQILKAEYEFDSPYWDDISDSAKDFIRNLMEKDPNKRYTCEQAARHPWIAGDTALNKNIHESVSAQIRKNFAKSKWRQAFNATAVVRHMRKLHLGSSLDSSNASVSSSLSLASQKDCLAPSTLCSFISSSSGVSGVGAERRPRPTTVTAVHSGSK
UniProt P12763, sequence (whole entry, unmodified, looked up): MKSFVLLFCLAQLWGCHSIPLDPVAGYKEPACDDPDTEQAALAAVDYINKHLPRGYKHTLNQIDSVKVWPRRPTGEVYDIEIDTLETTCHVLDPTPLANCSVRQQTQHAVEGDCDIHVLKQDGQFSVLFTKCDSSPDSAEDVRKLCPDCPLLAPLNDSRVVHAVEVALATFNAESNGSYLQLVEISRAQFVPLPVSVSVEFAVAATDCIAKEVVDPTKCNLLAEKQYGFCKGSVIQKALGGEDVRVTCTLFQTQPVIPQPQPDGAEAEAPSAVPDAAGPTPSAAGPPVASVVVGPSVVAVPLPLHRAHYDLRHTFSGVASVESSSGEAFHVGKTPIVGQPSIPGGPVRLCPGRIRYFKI
UniProt Q9Y345, sequence (whole entry, unmodified, looked up): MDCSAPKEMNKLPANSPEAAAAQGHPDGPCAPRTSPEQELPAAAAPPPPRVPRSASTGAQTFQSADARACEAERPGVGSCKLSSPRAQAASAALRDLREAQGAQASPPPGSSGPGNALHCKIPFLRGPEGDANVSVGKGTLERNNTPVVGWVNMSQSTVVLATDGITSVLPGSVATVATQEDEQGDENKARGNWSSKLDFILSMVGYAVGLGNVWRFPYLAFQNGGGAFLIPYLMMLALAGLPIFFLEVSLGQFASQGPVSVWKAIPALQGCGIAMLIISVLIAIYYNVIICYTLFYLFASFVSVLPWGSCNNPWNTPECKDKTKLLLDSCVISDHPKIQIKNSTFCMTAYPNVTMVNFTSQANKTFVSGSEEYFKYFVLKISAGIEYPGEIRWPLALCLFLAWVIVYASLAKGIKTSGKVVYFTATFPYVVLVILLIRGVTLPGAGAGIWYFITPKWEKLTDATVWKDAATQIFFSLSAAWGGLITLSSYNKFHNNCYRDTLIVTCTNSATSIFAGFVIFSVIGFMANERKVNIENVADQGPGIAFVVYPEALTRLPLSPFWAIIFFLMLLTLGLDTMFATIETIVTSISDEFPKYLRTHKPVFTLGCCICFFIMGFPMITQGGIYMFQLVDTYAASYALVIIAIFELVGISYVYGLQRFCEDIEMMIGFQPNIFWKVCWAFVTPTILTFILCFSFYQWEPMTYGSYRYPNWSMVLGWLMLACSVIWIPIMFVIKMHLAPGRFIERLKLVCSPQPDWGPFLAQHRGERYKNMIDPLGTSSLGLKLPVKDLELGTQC
UniProt P27361, sequence (whole entry, looked up): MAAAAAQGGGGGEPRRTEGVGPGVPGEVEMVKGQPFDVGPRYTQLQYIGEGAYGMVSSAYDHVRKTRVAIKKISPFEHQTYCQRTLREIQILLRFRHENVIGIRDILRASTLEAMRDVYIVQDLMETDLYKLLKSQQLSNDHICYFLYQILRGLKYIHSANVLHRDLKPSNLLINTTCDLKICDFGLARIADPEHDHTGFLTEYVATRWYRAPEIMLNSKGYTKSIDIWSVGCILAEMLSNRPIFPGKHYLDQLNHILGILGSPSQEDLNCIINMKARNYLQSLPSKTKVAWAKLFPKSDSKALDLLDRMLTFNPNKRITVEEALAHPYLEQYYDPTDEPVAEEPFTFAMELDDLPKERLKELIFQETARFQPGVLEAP
UniProt P08172, sequence (whole entry, looked up): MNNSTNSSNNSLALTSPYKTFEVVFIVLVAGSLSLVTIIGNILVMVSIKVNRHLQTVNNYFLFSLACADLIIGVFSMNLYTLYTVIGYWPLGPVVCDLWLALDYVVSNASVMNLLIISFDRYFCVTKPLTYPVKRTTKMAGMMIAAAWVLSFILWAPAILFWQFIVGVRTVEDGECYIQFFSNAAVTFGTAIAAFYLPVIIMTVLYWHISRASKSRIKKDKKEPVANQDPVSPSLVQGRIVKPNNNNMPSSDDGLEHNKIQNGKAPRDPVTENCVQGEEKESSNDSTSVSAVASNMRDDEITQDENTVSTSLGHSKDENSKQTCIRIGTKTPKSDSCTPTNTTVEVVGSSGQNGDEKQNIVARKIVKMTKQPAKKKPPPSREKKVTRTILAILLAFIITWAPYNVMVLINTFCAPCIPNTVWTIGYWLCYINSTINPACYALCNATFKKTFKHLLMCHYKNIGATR
UniProt O15075, sequence (whole entry, looked up): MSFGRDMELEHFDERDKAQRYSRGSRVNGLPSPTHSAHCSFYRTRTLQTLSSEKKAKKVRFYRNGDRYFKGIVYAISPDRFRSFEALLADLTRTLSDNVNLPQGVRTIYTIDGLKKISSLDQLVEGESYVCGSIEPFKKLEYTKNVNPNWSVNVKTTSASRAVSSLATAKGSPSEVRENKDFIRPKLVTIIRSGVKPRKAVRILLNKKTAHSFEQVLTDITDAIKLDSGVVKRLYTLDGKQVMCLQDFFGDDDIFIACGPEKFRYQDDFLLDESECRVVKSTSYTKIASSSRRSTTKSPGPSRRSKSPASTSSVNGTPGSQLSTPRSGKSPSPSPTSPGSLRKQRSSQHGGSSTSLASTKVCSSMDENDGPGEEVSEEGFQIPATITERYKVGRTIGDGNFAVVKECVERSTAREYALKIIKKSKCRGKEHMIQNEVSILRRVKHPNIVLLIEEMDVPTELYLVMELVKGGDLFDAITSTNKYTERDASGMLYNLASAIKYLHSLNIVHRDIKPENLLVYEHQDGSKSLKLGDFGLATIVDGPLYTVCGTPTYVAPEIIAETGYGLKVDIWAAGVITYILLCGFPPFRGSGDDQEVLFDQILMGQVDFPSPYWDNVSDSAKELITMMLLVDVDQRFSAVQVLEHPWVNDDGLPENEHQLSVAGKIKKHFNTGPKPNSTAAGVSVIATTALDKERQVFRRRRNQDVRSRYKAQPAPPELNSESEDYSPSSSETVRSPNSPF
UniProt Q5XI64, sequence (whole entry, looked up): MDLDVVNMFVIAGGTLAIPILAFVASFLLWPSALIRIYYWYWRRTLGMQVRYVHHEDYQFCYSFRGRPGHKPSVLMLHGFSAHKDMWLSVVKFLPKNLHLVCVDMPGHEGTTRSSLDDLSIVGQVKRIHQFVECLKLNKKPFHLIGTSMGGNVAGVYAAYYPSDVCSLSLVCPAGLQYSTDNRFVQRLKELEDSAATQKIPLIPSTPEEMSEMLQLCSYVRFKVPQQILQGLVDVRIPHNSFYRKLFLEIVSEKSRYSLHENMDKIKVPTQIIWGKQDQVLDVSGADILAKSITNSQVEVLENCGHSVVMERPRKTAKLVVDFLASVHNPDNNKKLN

| Structure (SMILES) | target | assay | system | conditions | scale | measurement | value |
| --- | --- | --- | --- | --- | --- | --- | --- |
| CC[C@H](C)[C@@H]1NC(=O)[C@H](Cc2c[nH]c3ccccc23)NC(=O)[C@H](Cc2ccc(O)cc2)NC(=O)CSC[C@@H](C(N)=O)NC(=O)[C@H]([C@@H](C)O)NC(=O)[C@H](CO)NC(=O)[C@H](C(C)C)NC(=O)[C@H](Cc2ccc(O)cc2)NC(=O)[C@H](CCCNC(=N)N)NC(=O)[C@H](Cc2ccc(O)cc2)NC(=O)[C@H]([C@@H](C)O)NC(=O)[C@H]([C@@H](C)O)NC(=O)[C@H](Cc2c[nH]c3ccccc23)NC(=O)[C@H](CO)NC(=O)[C@H](CC(N)=O)NC(=O)[C@H](CO)NC1=O | Vacuolar protein sorting-associated protein 26A/Vacuolar protein sorting-associated protein 35, Vps35 residues 1–172 (Homo sapiens, UniProt O75436+Q96QK1) | ITC |  | 25 °C |  | -TΔS | -2.5 ± 2.5 kcal/mol |
| COc1ccc(N2C(=O)N(c3c(C)cccc3Cl)Cc3cnc(Nc4ccc(C5CCN(C)CC5)cc4OC)nc32)nc1 | Calcium/calmodulin-dependent protein kinase type 1D (CAMK1D, Homo sapiens, UniProt Q8IU85) | kinase activity |  | 0.5 µM |  | inhibition | 11% |
| O=C(Nc1cccnn1)N1CCC(=Cc2cccc(Oc3ccc(C(F)(F)F)cn3)c2)CC1 | GRM2 | radioligand binding |  | 50 µM, added: [3H]LY341495 |  | inhibition of binding | -4% |
| CC(C)C[C@@H]1NC(=O)[C@H](C(C)C)NC(=O)CNC(=O)[C@H](CC(N)=O)NC(=O)[C@@H]2CCCN2C(=O)[C@H](Cc2ccc(O)cc2)NC(=O)[C@H](CCCNC(=N)N)NC(=O)[C@H](Cc2ccccc2)NC(=O)[C@@H](NC(=O)[C@H](CCCCN)NC(=O)[C@@H]2CCCN2C(=O)[C@H](CO)NC(=O)[C@H](C)NC(=O)[C@@H](N)Cc2ccc(O)cc2)CSSC[C@@H](C(=O)N[C@H](C(N)=O)[C@@H](C)O)NC(=O)[C@H](C)NC1=O | Alpha-2-HS-glycoprotein, asialo (AHSG, Bos taurus, UniProt P12763) | binding, isothermal titration calorimetry |  | pH 7.0, 25 °C, added: asialofetuin |  | -ΔH | 3.58 kcal/mol |
| O=C(c1ccc(Cl)cc1)N1CCN2C(=O)N(OC(=O)N3CCOc4ccccc43)C(=O)C2C1 (stereo not shown) | Isoamyl acetate-hydrolyzing esterase 1 homolog (IAH1, Homo sapiens, UniProt Q2TAA2) | MS-based ABPP | SW-620 conditioned medium | 10 µM, 1 h, 37 °C | reference: compound over DMSO, lower = more inhibition | mean protein ratio | 0.83 |
| Nc1ncc(-c2nc(N3CCOCC3)nc(N3CCOCC3)n2)c(C(F)F)n1 | Serine/threonine-protein kinase DCLK1 (DCLK1, Homo sapiens, UniProt O15075) | KINOMEscan |  | 10 µM |  | remaining binding | 86% |
| NCCc1c[nH]c2ccc(O)cc12 | arylalkylamine N-acetyltransferase (Camelus dromedarius, UniProt A0A5N4D3Q0) | enzyme activity, colorimetric DTNB |  | added: acetyl-CoA |  | Km | < 10 µM |
| C#CCCCCNC(=O)CI | Cytoskeleton-associated protein 4 (Homo sapiens, UniProt Q07065) | mass spectrometry profiling | H460 cell lysate | 100 µM over 10 µM, UniProt Q07065 | reference: high over low concentration | reactivity ratio | 1.66 |
| CN(C(=O)n1cnc(-c2ccc[n+]([O-])c2)c1)C1CCCCC1 | Monoacylglycerol lipase ABHD6 (Abhd6, Rattus norvegicus, UniProt Q5XI64) | enzyme activity, ABPP | rat, brain | oral, 10 mg/kg/day, 1 days | reference: vehicle | fold change | -6.5 |
| O=c1c2ccccc2oc2cc(OCCCCc3ccccc3)ccc12 | Acetylcholinesterase (ache, Electrophorus electricus, UniProt O42275) | enzyme activity |  | 0.36 µM, added: substrate 1.73 mM | higher = faster reaction | reaction velocity | 0.0016 a.u. |
| COc1cc2nccc(Oc3ccc(NC(=O)c4cc5c(n(-c6ccccc6)c4=O)CCCC5=O)nc3)c2cc1OC | Tyrosine-protein kinase receptor TYRO3 (TYRO3, Homo sapiens, UniProt Q06418) | cell viability, CellTiter-Glo | Ba/F3 expressing recombinant kinase |  | reference: TYRO3 IC50 over AXL IC50 | selectivity ratio | 12 |
| O=C(O)c1ccc(CN2C(=O)CN(C(=O)c3ccco3)c3cc(-c4ccccc4)c(Oc4ccc(C(=O)O)cc4)cc32)cc1 | GUCY1B1, with alpha-1 subunit (Homo sapiens, UniProt Q02153) | purified recombinant enzyme |  | 10 µM, wild-type α1/β1 |  | sGC activity | 271 ± 114 nmol cGMP/min/mg |
| [2H]c1c([2H])c([C@]2([2H])CCCN2C(=O)C(C)(C)Oc2ccc3cn[nH]c3c2)c([2H])c([2H])c1C([2H])([2H])[2H] | Mitogen-activated protein kinase kinase kinase 11 (MAP3K11, Homo sapiens, UniProt Q16584) | KINOMEscan |  | 1 µM | reference: DMSO control | remaining binding | 83% |
| CN(C(=O)n1cnc(-c2ccc[n+]([O-])c2)c1)C1CCCCC1 | GRM2 | radioligand binding |  | 10 µM, added: [3H]LY341495 |  | inhibition | -4% |
| CN1CCN(c2cc(-c3ccncc3)c(-c3ccc4ccccc4c3)nn2)CC1 | 5-hydroxytryptamine receptor 2C (HTR2C, Homo sapiens, UniProt P28335) | agonist, FLIPR |  | 12.5 µM |  | activation | 4.4% |
| CC[C@H](C)[C@H](NC(C)=O)C(=O)N[C@@H](CCC(=O)O)C(=O)N[C@H](C(=O)N[C@H](C=O)CC(=O)O)[C@@H](C)O | Caspase-8 (CASP8, Homo sapiens, UniProt Q14790) |  |  |  |  | Hill slope | -1.22 |
| NC(=O)c1cccc(-c2cc(OC(=O)NC3CCCCC3)ccc2O)c1 | Fatty-acid amide hydrolase 1 (Faah, Mus musculus, UniProt O08914) | liver enzyme activity, inhibitor | mouse | oral |  | ED50 | 0.3 mg/kg |

| Structure (SMILES) | target | assay | system | conditions | scale | measurement | value |
| --- | --- | --- | --- | --- | --- | --- | --- |
| O=C[C@H](O)COP(=O)(O)O | TPI1 (Saccharomyces cerevisiae, UniProt P00942, Y208A) | substrate, GPDH/NADH-coupled |  | pH 5.7, 25 °C |  | kcat | ~750 s⁻¹ |
| CSc1scc2c1-c1nc(SCC(=O)C(C)(C)C)ncc1CC2 | Dual specificity protein phosphatase 10, catalytic domain (Homo sapiens, UniProt Q9Y6W6) | X-ray co-crystal structure |  | concentration not given |  | active site volume | 51 ± 2.8 Å³ |
| C[C@H]1CN(c2n[nH]c3nc(N[C@H]4CC[C@H](NS(=O)(=O)CCC(F)(F)F)CC4)ncc23)CCO1 | Stomatin-like protein 2, mitochondrial (Homo sapiens, UniProt Q9UJZ1) | Kinobeads competition, item: STOML2 |  | 0.16 µM, unit not given | reference: vehicle | remaining binding | 0.98 |
| C=C(CN(C(=O)c1c(C(F)F)nn(C)c1F)C1CC1)c1ccc(Cl)cc1Cl | SDHD/SDHC/SDHB (Sus scrofa, UniProt A5GZW8+D0VWV4+Q007T0) | enzyme activity, inhibitor, DCIP reduction | pig | 0.06 µM, added: DCIP 190 µM |  | reaction velocity | 0.0343 µM/s and 0.035 µM/s and 0.0342 µM/s |
| COc1cc(Nc2ncc(F)c(Nc3ccc4c(n3)NC(=O)C(C)(C)O4)n2)cc(OC)c1OC | Phosphatidylinositol 4-phosphate 3-kinase C2 domain-containing subunit beta (PIK3C2B, Homo sapiens, UniProt O00750) | KINOMEscan |  | 10 µM |  | inhibition | 41% |
| COc1ccc(Nc2nn3c(-c4ccccc4)ccnc3c2C(=O)Nc2ccc(Cl)cc2)cc1 | α-glucosidase | SDS-PAGE densitometry, item: 45 kDa band |  | 1 mg/mL | reference: untreated enzyme, lower = more denaturation | band intensity | 87.2 a.u. |
| CO/N=C(\C(=O)N[C@@H]1C(=O)N2C(C(=O)O)=C(COC(C)=O)CS[C@H]12)c1csc(N)n1 | Penicillin-binding protein 2X (Streptococcus pneumoniae R6, UniProt P59676) | inhibitor | Streptococcus pneumoniae |  |  | kinact/KI | 730000 ± 58000 M⁻¹ s⁻¹ |
| COc1cc(O)cc(/C=C/c2ccc(O)cc2)c1 | O-methyltransferase (Sorghum bicolor, UniProt A0A1B6PFV1) | biolayer interferometry |  | added: saturating SAH |  | cooperativity factor σ | 14.7 |
| CC1=C(C(=O)O)N2C(=O)[C@@H](NC(=O)[C@H](N)c3ccccc3)[C@H]2SC1 | Penicillin-binding protein 2a (pbp2a, Streptococcus pneumoniae, UniProt Q8DNB6) | inhibitor |  |  |  | kinact/KI | 81 ± 12 M⁻¹ s⁻¹ |
| COC(=O)[C@@]1(O)C[C@H]2O[C@]1(C)n1c3ccccc3c3c4c(c5c6ccccc6n2c5c31)C(=O)NC4 | Mitogen-activated protein kinase 3 (MAPK3, Homo sapiens, UniProt P27361) | ADP-Glo |  | 4.15 µM, added: substrate MBP |  | remaining activity | 110% |
| Clc1cc2c(cc1Cl)Oc1cc(Cl)c(Cl)cc1O2 | Uncharacterized protein (Takifugu rubripes, UniProt Q4JHL5) | reporter gene, agonist, dual-luciferase | COS-7 | 24 h | reference: top over bottom | maximal fold induction | 2.3 ± 0.2 |
| CN(C)C1(CNC(=O)c2ccc3c(c2)CCN3C(=O)c2ccccc2)CCOCC1 | Sodium- and chloride-dependent glycine transporter 2 (Homo sapiens, UniProt Q9Y345, W215F) | inhibitor, two-electrode voltage clamp | Xenopus oocytes, W215F mutant |  | reference: wild type | potency decrease | > 18 fold |
| CN[C@@H]1C[C@H]2O[C@@](C)([C@@H]1OC)n1c3ccccc3c3c4c(c5c6ccccc6n2c5c31)C(=O)NC4 | CDC2-like kinase 1 (Trypanosoma brucei brucei, UniProt Q382U0) | kinase activity, ADP-Glo |  | 0.01953 µM |  | remaining activity | 84.2% |
| COc1cc(N)c(Cl)cc1C(=O)NC1CN2CCC1CC2 (stereo not shown) | Adhesion G-protein coupled receptor F3 (ADGRF3, Homo sapiens, UniProt Q8IZF5) | β-arrestin recruitment, TANGO luminescence, item: GPR113 |  | concentration not given | reference: basal luminescence | log2 fold change | 0.524 |
| CCN(CC)CCCC[C@H](NC(=O)[C@H](CC(C)C)NC(=O)[C@H](C)NC(=O)[C@H](Cc1ccccc1)NC(=O)c1ccc(C(C)(C)C)cc1)C(=O)N[C@@H](CO)C(=O)OC | Muscarinic acetylcholine receptor M2 (CHRM2, Homo sapiens, UniProt P08172) | antagonist, radioligand binding |  | 10 µM | reference: control binding | specific binding | 106% |
| CCCC(=O)CC(=O)N[C@H]1CCOC1=O | qscR (Pseudomonas aeruginosa, UniProt G3XD77) | protein-ligand complex stability, differential scanning fluorimetry |  |  |  | melting temperature | 32 °C |
| Cc1ncsc1-c1ccc(CNC(=O)[C@@H]2C[C@@H](O)CN2C(=O)[C@@H](NC(=O)COCCOCCOCCNC(=O)C[C@@H]2N=C(c3ccc(Cl)cc3)c3c(sc(C)c3C)-n3c(C)nnc32)C(C)(C)C)cc1 | VHL-ElonginB-ElonginC complex human | ternary complex formation, fluorescence polarization |  | added: PBRM1 bromodomain 5 |  | cooperativity factor | 3.3 |
